Measurements from different studies.
Each numbered part is a random draw from the data of one study; scales do not carry over between parts.
Sequence of UniProt Q99720 (whole entry, looked up): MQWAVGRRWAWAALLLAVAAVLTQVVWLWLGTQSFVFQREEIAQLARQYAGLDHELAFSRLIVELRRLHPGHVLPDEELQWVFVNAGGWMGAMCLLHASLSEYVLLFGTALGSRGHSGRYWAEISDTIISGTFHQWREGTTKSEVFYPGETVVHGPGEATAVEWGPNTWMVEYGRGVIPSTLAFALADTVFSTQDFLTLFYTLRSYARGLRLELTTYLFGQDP
Sequence of UniProt P35462 (whole entry, looked up): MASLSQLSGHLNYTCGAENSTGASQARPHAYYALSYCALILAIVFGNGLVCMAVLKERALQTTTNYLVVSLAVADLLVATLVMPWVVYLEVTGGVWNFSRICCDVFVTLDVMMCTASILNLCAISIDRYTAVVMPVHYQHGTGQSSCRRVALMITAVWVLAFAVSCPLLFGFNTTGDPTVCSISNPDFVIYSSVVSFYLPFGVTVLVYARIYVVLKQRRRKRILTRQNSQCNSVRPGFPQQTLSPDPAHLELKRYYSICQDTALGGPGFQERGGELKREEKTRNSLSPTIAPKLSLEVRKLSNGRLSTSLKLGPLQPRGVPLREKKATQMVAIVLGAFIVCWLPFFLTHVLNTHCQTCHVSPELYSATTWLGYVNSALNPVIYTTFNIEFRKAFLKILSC
Sequence of UniProt P18089 (whole entry, looked up): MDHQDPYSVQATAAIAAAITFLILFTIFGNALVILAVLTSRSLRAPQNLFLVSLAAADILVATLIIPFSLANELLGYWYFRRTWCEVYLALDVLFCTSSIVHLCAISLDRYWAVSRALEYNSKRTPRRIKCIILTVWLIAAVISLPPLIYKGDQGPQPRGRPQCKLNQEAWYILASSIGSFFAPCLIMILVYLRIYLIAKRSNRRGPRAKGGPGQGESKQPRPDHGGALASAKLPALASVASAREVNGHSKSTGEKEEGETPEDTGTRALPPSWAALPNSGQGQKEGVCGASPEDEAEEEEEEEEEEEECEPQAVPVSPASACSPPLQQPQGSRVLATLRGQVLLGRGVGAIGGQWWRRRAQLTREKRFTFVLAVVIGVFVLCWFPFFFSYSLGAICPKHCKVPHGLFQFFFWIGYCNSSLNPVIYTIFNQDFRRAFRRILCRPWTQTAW
Sequence of UniProt P08913 (whole entry, looked up): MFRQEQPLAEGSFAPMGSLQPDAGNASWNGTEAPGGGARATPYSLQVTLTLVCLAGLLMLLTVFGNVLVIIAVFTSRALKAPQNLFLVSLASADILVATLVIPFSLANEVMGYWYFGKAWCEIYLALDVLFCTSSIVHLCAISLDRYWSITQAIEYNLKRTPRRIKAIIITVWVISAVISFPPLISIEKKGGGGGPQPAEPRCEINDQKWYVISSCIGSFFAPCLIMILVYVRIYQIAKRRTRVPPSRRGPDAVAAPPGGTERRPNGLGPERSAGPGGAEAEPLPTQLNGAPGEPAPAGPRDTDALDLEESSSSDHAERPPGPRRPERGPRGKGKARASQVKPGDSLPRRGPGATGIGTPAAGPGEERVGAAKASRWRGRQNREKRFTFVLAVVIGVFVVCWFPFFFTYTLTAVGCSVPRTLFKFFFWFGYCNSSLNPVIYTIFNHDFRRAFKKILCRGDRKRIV
Sequence of UniProt P35367 (whole entry, looked up): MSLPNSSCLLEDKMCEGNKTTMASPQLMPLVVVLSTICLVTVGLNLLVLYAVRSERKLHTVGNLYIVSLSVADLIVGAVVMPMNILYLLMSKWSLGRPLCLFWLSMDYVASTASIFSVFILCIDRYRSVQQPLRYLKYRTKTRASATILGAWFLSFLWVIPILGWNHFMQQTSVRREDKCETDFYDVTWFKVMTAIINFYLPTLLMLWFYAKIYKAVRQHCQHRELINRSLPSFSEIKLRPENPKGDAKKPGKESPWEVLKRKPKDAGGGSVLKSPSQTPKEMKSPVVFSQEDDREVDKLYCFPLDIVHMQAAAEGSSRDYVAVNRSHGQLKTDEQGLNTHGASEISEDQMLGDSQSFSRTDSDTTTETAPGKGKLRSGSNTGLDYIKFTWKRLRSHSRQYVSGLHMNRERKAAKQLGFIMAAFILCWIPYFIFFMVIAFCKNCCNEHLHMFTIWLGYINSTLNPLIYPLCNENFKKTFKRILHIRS
Sequence of UniProt P25021 (whole entry, looked up): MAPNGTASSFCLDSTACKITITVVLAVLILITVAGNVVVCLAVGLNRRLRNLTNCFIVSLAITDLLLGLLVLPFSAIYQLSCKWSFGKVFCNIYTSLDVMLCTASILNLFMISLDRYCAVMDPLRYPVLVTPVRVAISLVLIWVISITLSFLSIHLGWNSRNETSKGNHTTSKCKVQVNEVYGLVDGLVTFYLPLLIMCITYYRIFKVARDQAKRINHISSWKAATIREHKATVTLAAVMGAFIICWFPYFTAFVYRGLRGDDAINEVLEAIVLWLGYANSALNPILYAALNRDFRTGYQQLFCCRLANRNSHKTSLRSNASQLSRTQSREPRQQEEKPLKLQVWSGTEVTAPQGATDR
Sequence of UniProt P21917 (whole entry, looked up): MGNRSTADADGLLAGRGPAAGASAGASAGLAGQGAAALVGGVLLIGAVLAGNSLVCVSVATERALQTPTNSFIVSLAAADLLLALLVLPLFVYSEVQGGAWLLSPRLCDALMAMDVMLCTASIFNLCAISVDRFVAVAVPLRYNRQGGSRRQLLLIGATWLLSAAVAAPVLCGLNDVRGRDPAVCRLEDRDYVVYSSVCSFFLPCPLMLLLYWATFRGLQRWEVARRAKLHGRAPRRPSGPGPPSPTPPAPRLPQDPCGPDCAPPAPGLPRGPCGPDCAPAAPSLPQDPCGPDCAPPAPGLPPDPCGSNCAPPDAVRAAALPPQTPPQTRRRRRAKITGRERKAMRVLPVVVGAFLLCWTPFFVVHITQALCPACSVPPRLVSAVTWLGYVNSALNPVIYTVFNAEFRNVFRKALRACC
Sequence of UniProt P35368 (whole entry, looked up): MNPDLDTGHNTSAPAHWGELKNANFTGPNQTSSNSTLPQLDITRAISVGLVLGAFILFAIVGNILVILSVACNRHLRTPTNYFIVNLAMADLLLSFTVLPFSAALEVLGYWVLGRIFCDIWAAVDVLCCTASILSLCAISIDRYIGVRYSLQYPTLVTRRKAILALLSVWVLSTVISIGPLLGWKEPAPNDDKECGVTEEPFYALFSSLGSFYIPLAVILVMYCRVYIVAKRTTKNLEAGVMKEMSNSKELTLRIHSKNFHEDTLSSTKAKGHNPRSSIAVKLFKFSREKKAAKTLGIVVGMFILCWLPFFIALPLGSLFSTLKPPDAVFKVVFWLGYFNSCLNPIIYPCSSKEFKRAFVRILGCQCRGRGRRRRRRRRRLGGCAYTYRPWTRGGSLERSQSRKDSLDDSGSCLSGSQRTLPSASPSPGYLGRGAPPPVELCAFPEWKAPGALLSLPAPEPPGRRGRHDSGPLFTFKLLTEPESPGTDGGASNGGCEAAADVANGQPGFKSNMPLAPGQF

Study 1
Target: Beta-1 adrenergic receptor (ADRB1, Homo sapiens, UniProt P08588)
Sequence of UniProt P08588 (whole entry, looked up): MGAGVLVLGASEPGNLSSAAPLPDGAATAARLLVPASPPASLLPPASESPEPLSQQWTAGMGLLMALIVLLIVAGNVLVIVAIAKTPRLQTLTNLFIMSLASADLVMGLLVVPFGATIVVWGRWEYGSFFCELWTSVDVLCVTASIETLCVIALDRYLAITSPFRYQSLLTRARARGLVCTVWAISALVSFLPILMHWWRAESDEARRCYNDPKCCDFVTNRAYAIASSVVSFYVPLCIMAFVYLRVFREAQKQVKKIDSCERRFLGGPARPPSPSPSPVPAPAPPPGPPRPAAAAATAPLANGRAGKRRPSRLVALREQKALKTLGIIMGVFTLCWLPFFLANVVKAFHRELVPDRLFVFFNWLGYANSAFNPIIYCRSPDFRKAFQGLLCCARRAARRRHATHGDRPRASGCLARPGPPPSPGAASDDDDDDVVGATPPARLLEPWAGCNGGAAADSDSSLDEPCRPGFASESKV
Mode: antagonist
Endpoint: IC50
COC(=O)C1CCN(CC(O)COc2cccc(CN3CC=C(C)CC3)c2)CC1 (stereo not shown): ≥ 100 µM
CN(C)c1ccc(CN2CCOC[C@H]2c2nc(-c3cccc(F)c3)c[nH]2)cc1: ≥ 100 µM
Cc1ccc2c(CSc3nnnn3-c3ccc(Cl)cc3)cc(=O)oc2c1: ≥ 100 µM
COc1cc(CNCCOc2ccccc2)ccc1OCC(O)CN1CCOCC1 (stereo not shown): ≥ 100 µM
COc1ccccc1N1CCN(C(=O)c2ccc3c(c2)OCCO3)CC1: ≥ 100 µM
Oc1ccc(CCNCCCCCCNCCc2ccccc2)cc1O: ≥ 100 µM
CC1CCN(Cc2ccccc2OCC(O)CN2CCSCC2)CC1 (stereo not shown): ≥ 100 µM
COc1ccccc1N1CCN(c2ncncc2-c2nc(-c3ccccc3)no2)CC1: ≥ 100 µM
Cc1cc2c(F)c(Oc3ncnn4cc(OCC(C)O)c(C)c34)ccc2[nH]1 (stereo not shown): ≥ 100 µM
CCN(c1cc(-c2ccc(N3CCN(C)CC3)nc2)cc(C(=O)NCc2c3c(c(C)[nH]c2=O)CCCC3)c1C)C1CCOCC1: ≥ 100 µM
N#Cc1cc2cc(CN3CCC(Nc4ncnc5sc(CC(F)(F)F)cc45)CC3)c(O)cc2n1Cc1cn[nH]c1: 35.5 µM
COc1cc(F)ccc1-c1nc(N2CCOCC2)cc2c1CN(CC(F)(F)F)C2=O: ≥ 100 µM
OC(CNc1ncnc2c1cnn2-c1ccccc1)C1CC1 (stereo not shown): ≥ 100 µM
c1cc2nnc(C3CCC3)n2nc1N1CCCNCC1: ≥ 100 µM
COc1ccccc1OCC(O)CNC(C)C (stereo not shown): ≥ 100 µM
O=C(Nc1ccc2ccccc2n1)c1ccccc1OCc1cscn1: ≥ 100 µM
O=C(Nc1ccc([C@@H](O)[C@H]2COCC(=O)N2Cc2ccc(F)cc2)cc1)c1ccc2c(c1)OCO2: ≥ 100 µM

Study 2
Target: Serine/threonine-protein kinase Sgk3 (SGK3, Homo sapiens, UniProt Q96BR1)
Sequence of UniProt Q96BR1 (whole entry, looked up): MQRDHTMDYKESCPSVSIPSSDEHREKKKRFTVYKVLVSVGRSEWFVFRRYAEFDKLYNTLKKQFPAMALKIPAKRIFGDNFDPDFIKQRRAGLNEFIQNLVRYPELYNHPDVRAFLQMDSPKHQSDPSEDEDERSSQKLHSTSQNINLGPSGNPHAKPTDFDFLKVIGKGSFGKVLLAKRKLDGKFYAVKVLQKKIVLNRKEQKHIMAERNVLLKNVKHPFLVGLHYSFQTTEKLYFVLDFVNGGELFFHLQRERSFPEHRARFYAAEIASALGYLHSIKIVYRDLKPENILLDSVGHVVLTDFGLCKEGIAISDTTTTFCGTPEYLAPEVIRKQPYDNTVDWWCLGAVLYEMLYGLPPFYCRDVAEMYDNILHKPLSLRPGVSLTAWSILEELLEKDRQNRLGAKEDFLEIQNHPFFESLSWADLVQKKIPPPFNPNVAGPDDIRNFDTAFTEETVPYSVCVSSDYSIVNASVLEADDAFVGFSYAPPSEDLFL
Observed: enzyme activity
Mode: inhibitor
Concentration: 0.5 µM
Baseline: control
Endpoint: remaining activity
O=C1NC(=O)c2c1c1c3ccccc3[nH]c1n1cncc21: 111%
COc1cccc(-c2cc(=O)c3ccccc3o2)c1N: 101%
CCCNC(=O)Nc1ccc(Oc2ncnc3cc(OC)c(OC)cc23)cc1Cl: 95.5%
O=c1cc(N2CCOCC2)oc2c(-c3ccccc3)cccc12: 109%
Cc1ccc(S(=O)(=O)/C=C/C#N)cc1: 108%
CCCCc1c(-c2ccc(OC)cc2)[nH]c2nccnc12: 98.6%
CN1CCN(c2ccc3nc(-c4c(N)c5c(F)cccc5[nH]c4=O)[nH]c3c2)CC1: 98.4%
c1ccc(-c2n[nH]c3c2oc2ccccc23)cc1: 111%
COc1ccc2c(c1)c(C1=C(c3c[nH]c4ccccc34)C(=O)NC1=O)cn2CCCN(C)C: 101%
O=Nc1c(-c2c(O)[nH]c3cc(Br)ccc23)[nH]c2ccccc12: 97.2%
N#Cc1cnc2cnc(NCc3cccnc3)cc2c1Nc1ccc(F)c(Cl)c1: 91.5%
O=C1Cc2c([nH]c3ccc(Br)cc23)-c2ccccc2N1: 107%
COc1ccc(COc2ccc(Cc3cnc(N)nc3N)cc2OC)cc1: 105%
O=C1Nc2ccccc2/C1=C\c1c(Cl)[nH]c2ccccc12: 102%
CN(C)S(=O)(=O)c1ccc2c(c1)/C(=C/c1cc3c([nH]1)CCCC3)C(=O)N2: 98.1%
O=C1Nc2ccc(Br)cc2/C1=C/c1cc2c([nH]1)CCCC2: 97.6%
O=C(c1cc2cc(O)ccc2[nH]1)c1cc2cc(O)ccc2[nH]1: 113%
Cc1cc(Nc2cc(N3CCN(C)CC3)nc(Sc3ccc(NC(=O)C4CC4)cc3)n2)[nH]n1: 101%
c1ccc2c(-c3ccncc3)c[nH]c2c1: 92.8%

Study 3
SMILES: CCOc1cc(N2C3COCC2CN(C(=O)[C@H]2C[C@H](O)CN2c2ccc(Cl)cc2)C3)ccc1Cl
Observed: cell-free assay
Concentration: 10 µM
Endpoint: inhibition
Alpha-2B adrenergic receptor (ADRA2B, Homo sapiens, UniProt P18089): -19.9%
Sigma non-opioid intracellular receptor 1 (SIGMAR1, Homo sapiens, UniProt Q99720): 85%
Histamine H2 receptor (HRH2, Homo sapiens, UniProt P25021): 27.7%
D(3) dopamine receptor (DRD3, Homo sapiens, UniProt P35462): 1.58%
Alpha-2A adrenergic receptor (ADRA2A, Homo sapiens, UniProt P08913): -11%
Alpha-1D adrenergic receptor (ADRA1D, Homo sapiens, UniProt P25100): 7.09%
Alpha-1B adrenergic receptor (ADRA1B, Homo sapiens, UniProt P35368): -12.1%
Beta-1 adrenergic receptor (ADRB1, Homo sapiens, UniProt P08588): -26.2%
Histamine H1 receptor (HRH1, Homo sapiens, UniProt P35367): 11.2%
D(4) dopamine receptor (DRD4, Homo sapiens, UniProt P21917): 15.5%
Muscarinic acetylcholine receptor M4 (CHRM4, Homo sapiens, UniProt P08173): -3.29%

Study 4
Target: Calcium/calmodulin-dependent protein kinase type II subunit alpha (CAMK2A, Homo sapiens, UniProt Q9UQM7)
Sequence of UniProt Q9UQM7 (whole entry, looked up): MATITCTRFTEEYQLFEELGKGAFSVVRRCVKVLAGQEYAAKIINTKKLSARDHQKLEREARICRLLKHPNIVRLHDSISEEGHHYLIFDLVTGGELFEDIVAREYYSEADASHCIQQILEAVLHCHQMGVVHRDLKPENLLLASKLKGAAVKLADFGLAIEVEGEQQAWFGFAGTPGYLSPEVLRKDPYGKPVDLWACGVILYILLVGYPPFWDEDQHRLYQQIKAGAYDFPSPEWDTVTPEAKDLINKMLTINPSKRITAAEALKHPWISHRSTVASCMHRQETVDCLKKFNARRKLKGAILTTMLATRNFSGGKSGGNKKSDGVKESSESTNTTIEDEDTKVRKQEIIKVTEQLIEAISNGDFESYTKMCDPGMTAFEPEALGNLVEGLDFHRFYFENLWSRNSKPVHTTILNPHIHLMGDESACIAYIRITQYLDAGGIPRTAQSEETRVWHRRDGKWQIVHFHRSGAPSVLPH
Observed: enzyme activity
Mode: inhibitor
Concentration: 10 µM
Endpoint: inhibition
C[C@H](CCC(=O)O)[C@H]1CC[C@H]2[C@@H]3[C@@H](O)C[C@@H]4C[C@H](O)CC[C@]4(C)[C@H]3C[C@H](O)[C@]12C: -31%
CC(C)NC(=N)NC(=N)Nc1ccc(Cl)cc1: -3%
COc1ccc(C(C)=O)c(O[C@@H]2O[C@H](CO[C@@H]3OC[C@H](O)[C@H](O)[C@H]3O)[C@@H](O)[C@H](O)[C@H]2O)c1: 6%
NC(N)=N[C@@H](CC(=O)O)C(=O)O: -5%
CNC(=O)c1ccc(N2C(=S)N(c3cnc(C#N)c(C(F)(F)F)c3)C(=O)C23CCC3)cc1F: -3%
NC(=O)N1c2ccccc2CC(=O)c2ccccc21: 2%
CC(C)NC(=O)COc1cccc(-c2nc(Nc3ccc4[nH]ncc4c3)c3ccccc3n2)c1: -12%
Cc1cc(=O)oc2cc(O)cc(O)c12: 27%

For quick reference, copied from above (study 2):
Cc1ccc(S(=O)(=O)/C=C/C#N)cc1: 108%
CCCCc1c(-c2ccc(OC)cc2)[nH]c2nccnc12: 98.6%
CN1CCN(c2ccc3nc(-c4c(N)c5c(F)cccc5[nH]c4=O)[nH]c3c2)CC1: 98.4%
c1ccc(-c2n[nH]c3c2oc2ccccc23)cc1: 111%
